Experimental data gathered from unrelated publications.
Every numbered part comes from another study and shows a few of its results, in no order.

Study 1 — method: universal PBM; form: double-stranded DNA, one strand shown; medium: in vitro; tested at: 600 nM; reading: higher = stronger binding; measurement: E-score
Target: Sal-like protein 4, full length isoform A (SALL4, Homo sapiens, UniProt Q9UJQ4, residues 1-1053)
Chain of UniProt Q9UJQ4 (whole entry, looked up): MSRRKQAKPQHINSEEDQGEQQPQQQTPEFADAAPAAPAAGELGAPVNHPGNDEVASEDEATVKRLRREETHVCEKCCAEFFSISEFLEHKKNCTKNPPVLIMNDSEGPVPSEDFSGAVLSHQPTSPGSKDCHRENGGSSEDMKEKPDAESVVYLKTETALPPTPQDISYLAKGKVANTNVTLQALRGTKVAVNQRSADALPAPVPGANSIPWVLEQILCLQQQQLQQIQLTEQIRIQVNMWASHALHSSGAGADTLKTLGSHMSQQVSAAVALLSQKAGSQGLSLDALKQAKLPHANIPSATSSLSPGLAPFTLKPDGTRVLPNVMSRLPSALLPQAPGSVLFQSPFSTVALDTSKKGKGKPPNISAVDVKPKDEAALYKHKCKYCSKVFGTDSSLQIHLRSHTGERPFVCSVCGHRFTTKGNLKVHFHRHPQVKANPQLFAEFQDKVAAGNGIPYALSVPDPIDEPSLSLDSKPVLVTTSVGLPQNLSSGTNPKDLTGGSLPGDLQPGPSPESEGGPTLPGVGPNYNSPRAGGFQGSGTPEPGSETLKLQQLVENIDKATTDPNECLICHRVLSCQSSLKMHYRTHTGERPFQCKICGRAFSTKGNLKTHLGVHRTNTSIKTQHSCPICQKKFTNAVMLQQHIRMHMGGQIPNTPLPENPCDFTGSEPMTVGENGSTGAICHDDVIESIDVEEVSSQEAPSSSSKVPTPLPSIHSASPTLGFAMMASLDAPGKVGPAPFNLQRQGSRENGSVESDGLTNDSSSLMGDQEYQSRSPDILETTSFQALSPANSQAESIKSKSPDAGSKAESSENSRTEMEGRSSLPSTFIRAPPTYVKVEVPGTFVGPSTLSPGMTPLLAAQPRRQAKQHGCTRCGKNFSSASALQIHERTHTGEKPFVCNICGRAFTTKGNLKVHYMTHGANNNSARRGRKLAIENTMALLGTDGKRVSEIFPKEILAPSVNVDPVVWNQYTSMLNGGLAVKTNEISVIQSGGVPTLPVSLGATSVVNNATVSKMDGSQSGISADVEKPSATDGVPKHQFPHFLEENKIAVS
Notes: 8-mer, flanks averaged, mean of replicates
ATCCTATG: 0.116
GGGGGTGA: -0.168
CAAGTAGC: -0.127
AAGGCACG: -0.226
CATCGTAG: -0.145
AGGATACT: -0.0255
ATGCCTAC: -0.048
CCCTAACA: 0.0568
ATAGCAGC: -0.0778
CATTTGGC: 0.00981
CGCAGTGA: -0.0669
GGGGTATA: 0.0229
GACGGAGC: -0.266
CGGTGAAA: 0.091
AATCTTAG: 0.046
CGTGCGCC: -0.194
GATATTTA: 0.394
CGAAGTAA: 0.0487
CACTCCGC: -0.244
AGATGGAA: 0.0142

Study 2 — method: protein binding microarray; form: double-stranded DNA, one strand shown; medium: in vitro; tested at: not given; relative to: not given; reading: higher = stronger binding; measurement: E-score
Target: Histone acetyltransferase KAT6A, winged helix 1, GST fusion (KAT6A, Homo sapiens, UniProt Q92794, residues 1-85)
Notes: 8-mer, flanks averaged, mean of 2 arrays, mostly near background
Construct (chain): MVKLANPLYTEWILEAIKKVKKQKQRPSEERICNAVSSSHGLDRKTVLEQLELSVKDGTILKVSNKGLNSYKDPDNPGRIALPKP
ATGCGTCC: 0.223
CCAATGGC: -0.0299
GGACATCC: 0.165
GCTAACCC: 0.133
ATACATGC: -0.00377
AAATACAC: -0.125
ACGTCCTG: -0.0823
ATATATCC: -0.00899
AGGACCGG: 0.087
AGATCCGG: -0.0189
GGGCGAAA: -0.0596
CCCTGGGA: 0.00679
GCTCGGGA: 0.2
ATAGCGGC: 0.332
ACTGTTTG: -0.0863
GTCGCCAA: -0.0232
ACACCAAT: -0.171
CAAAGAGG: -0.18
GCTGTGAA: -0.00303
TAATATTA: -0.0778
ATCTATGG: -0.202
ATGGAACG: -0.00297
ACTGCGAG: -0.0997
ATGGAGGC: 0.0459
CTAGACAG: -0.0259

Study 3 — method: RNA Bind-n-Seq; form: RNA; medium: in vitro; tested at: 200 nM; notes: whole 134-nt RNA, ends assumed; together with: 150 mM LiCl; relative to: input library; reading: higher = stronger binding; measurement: log2 enrichment; library: 7-deaza-guanosine replaces G
Target: Ras GTPase-activating protein-binding protein 1, full length (G3BP1, Homo sapiens, UniProt Q13283)
Chain of UniProt Q13283 (whole entry, looked up): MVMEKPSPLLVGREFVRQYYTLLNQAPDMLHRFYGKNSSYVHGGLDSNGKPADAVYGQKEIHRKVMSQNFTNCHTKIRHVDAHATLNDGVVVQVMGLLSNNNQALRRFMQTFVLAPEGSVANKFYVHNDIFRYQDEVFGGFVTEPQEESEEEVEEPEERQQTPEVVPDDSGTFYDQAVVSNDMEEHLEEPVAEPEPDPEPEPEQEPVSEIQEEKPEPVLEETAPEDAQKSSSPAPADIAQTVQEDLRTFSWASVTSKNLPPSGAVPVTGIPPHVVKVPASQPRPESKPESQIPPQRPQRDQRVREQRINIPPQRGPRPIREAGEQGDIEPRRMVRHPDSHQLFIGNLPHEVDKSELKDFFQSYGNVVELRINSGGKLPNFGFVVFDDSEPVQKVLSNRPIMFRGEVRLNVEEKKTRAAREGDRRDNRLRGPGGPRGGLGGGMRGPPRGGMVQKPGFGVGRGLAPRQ
Constant ends, left off below: GGGAGUUCUACAGUCCGACGAUC … UGGAAUUCUCGGGUGUCAAGG
UCAAGUCCUGUGCUACACAUCGUAUGUACCGAAUCGGUUGGGGUUGGGGUUGGGGAAAGUAUUAUGUUACGCCGUUCGGAUCUGCACUUC: -0.708
GUCCUGUGCUACACAUCGUAUGUACCGAAUCGGUUUUUGGGGUUUUUGGGUUUUUGGGGAAAGUAUUAUGUUACGCCGUUCGGAUCUGCA: -0.529
UAACUUUAGAGGAGGAUCUGAUGGAUAUGGCAGUGGACGUGGAUUUGGGGAUGGCUAUAAUGGGUAUGGAGGAGGACAUGGAGGUGGCAA: 0.0845
CACAGACAACACGCCCCCACACAGACACAGAGGGAAGGGGUUGGGAUGGGGACAGGGUGCACAGCAGGGCGGGGUAGGACCCCAGCCCCU: -1.2
CACAGACAACACGCACCCACACAGACACAGAGGGAAGGGGUUGGGAUGGGGACAGGGUGCUCAGCAGGGCGGGGUAGGACCCCAGCCCCU: 0.487
UGUGCUACACAUCGUAUGUACCGAAUCGGGGUUUUUUUGGGUUUUUUUGGGUUUUUUUGGGGAAAGUAUUAUGUUACGCCGUUCGGAUCU: 1.7
UGGCCCUGGUGGUAUGCGGGGAGGAAGAGGUGGCCUCAUGGAUCGUGGUGGUCCCGGUGGAAUGUUCAGAGGUGGCCGUGGUGGAGACAG: 0.651
GUCCUGUGCUACACAUCGUAUGUACCGAAUCAAAUUUUUAAAUUUUUUUAAAUUUAAAAAAGUAUUAUGUUACGCCGUUCGGAUCUGCAC: -2.93
AAGUCCUGUGCUACACAUCGUAUGUACCGAAUCGUGUGUGUGUGUGUGUGUGUGUGAAAGUAUUAUGUUACGCCGUUCGGAUCUGCACUU: -0.639
CUGUGCUACACAUCGUAUGUACCGAAUCGGGAAAAAAAGGGGAAAAAAAGGGAAAAAAAGGAAAGUAUUAUGUUACGCCGUUCGGAUCUG: 0.0598
UGGCCCUGGUGGCAUGCGGGGAGGAAGAGGUGGCCUCAUGGAUCGUGGUAGUCCCGGUGGAAUGUUCAGAGGUGGCCGUGGUGGAGACAG: 0.898

Study 4 — method: protein-binding microarray; form: double-stranded DNA, one strand shown; medium: in vitro; tested at: 2200 nM top; notes: 60-bp whole probe; together with: salmon DNA 0.4 mg/ml; relative to: random background probes; reading: higher = stronger binding; measurement: fitted relative affinity; constant ends, left off below: GCCTAGCAC … GTCTTGATTCGCTTGACGCTGCTG
Target: Interferon regulatory factor 7, full length, phosphomimetic (IRF7, Homo sapiens, UniProt Q92985, residues 1-503, S471D/S472D/S475D/S476D/S477D/S483D/S484D/S487D)
Chain of UniProt Q92985 (whole entry, unmodified, looked up): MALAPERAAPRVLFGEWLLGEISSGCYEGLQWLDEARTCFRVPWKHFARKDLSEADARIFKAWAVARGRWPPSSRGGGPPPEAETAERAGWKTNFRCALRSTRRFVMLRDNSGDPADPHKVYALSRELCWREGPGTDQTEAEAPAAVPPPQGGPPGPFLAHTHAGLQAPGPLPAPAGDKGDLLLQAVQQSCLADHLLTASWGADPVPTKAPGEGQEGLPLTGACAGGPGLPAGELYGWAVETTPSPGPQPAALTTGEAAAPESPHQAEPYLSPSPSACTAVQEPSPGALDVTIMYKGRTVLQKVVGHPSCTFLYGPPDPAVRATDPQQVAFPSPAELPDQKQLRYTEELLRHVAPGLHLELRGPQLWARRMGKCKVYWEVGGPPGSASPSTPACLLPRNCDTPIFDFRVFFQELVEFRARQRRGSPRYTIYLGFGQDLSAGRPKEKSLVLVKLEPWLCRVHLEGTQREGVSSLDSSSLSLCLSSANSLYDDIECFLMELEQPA
TTAGGTTTCGGACAGGGTTAGTGCTAG: 1.73 z-score
TTTTATGAAGGCCGGGGAGGGTGCTAG: -0.199 z-score
TATGTTCCCTATTTAAGGCTGTGCTAG: 1.81 z-score
TTAGGTCTCCTTATGCTTTAGTGCTAG: 0.653 z-score
TCACTTTTCATTACTGCACTGTGCTAG: 3.52 z-score
TTCGGTTTCGACTATCGGTTAGTGCTA: 5.8 z-score
GACGGGTTCGGTTCCGGGACGTGCTAG: 1.42 z-score
TTAAGTCTCGGTTTCGGTTAGTGCTAG: 7.85 z-score
GACGGACTGGATCTCGGGACGTGCTAG: -0.512 z-score
TCAGTTTCCTTCCTCTTACTGTGCTAG: 5.09 z-score
AGAGCTTGTAGCCATCTTTGGTGCTAG: -0.138 z-score
TTTAGATTTTTTTTCCTAATGTGCTAG: 1.18 z-score
GACGATTCCGGTTTCGAGACGTGCTAG: 4.42 z-score
TCATATTTTTTTGTAATACTGTGCTAG: 0.898 z-score
TCACTCTTCTTTTTTTTACTGTGCTAG: 1.71 z-score
TTACGTTTCGACACTGGGTTAGTGCTA: 4.3 z-score
TAGACTCTGTGCTTTCCTCGTGTGCTA: 1.21 z-score
TCAACATTGCACAATCTTACTGTGCTA: 0.493 z-score
TTAGGTATCGGGTATCGGTTCGTGCTA: 1.16 z-score

Study 5 — method: RNA Bind-n-Seq; form: RNA; medium: in vitro; tested at: 365 nM; relative to: no-protein control; reading: higher = stronger binding; measurement: RBNS enrichment (R)
Target: RNA binding protein fox-1 homolog 2, RRM domain, GST-SBP tag (RBFOX2, Homo sapiens, UniProt O43251-10, residues 100-194)
Notes: natural RNA segment, single round, ends assumed
Constant ends, left off below: GGGAGUUCUACAGUCCGACGAUC … UGGAAUUCUCGGGUGCCAA
Target sequence (chain): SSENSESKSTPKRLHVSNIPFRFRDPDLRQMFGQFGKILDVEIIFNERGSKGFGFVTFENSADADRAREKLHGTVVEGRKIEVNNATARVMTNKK
AGAAACCGUUACAAUUUCCUGUUGCUGUACAGCCUCUUCUGAACUCUCUUCUCUCUUUGGUGUUCAUAGAGACAUUUCCAAUGGCAUUGCUUGAUUCAAAACCAAGGAAA: 0.336
AGAGGGAGUGAAGAGCCUGCCCUCCUAUAUGGAUUCUUCAGGGCCCUCCACAUCUGAGGUGGCUCAUUCCCAUCACACACAGAUUGUCCUGGUGUUCAUUUCAAGGCCAG: 0.459
UUUUGUUUUGUUGAGUUAAAGUAUAUUAUUGUGAGAUUUAUUUAAUAGGACUUCCUUUGAAAGCUGUAUAAUAGUGUUUCUCGGGCUUCUGUCUCUAUGAGAGAUAGCUU: 0.834
UAAACCUACAAUUGAUUGCUUCUAGAGUUUAAAAAGGGAAAGUUGUGCUUGUAUUUGCAAGUUGAAUUUUUUUAAUGUUGGUUCCAAAAACAGUGAAUUAGCUGAAAAGA: 3.15
AGUCGGAACAGCAGAUAACAAUGCAGCAAGGCCCUGCUGCCCAAUCUCCAUCUGUCAACAGGGGCGUGAGGUCCCAGGAAGUGGCCAAAAGCUAGACAGAUCCCCGUUCC: 0.316
UUAACACUAAAAACGGAUCAAAGCUCCCACGCCAGUCCACUAGGGCCCCAGUAGUUGACAGCCUUGCUCCUCUCCCAAGUUCUCCUUCAGAACCUAGUUGCUUUUAUUCU: 0.936
AGGUAGCUGAAGGCCUCAGCCCACCCACUCCCUUCUUCCCUGUGUGGGGCUCAAGCCUGGUGCACUUAGUAUAGAAGAGCUAACGUACUCAGGCUUGUGCCACGGGUGAG: 0.331
CCAGCUUGGGCAACGUAGUGAGACCCCUAUCUCUACAAAAAAUAAAAAAAUUAGCUGGGUGUGAUGGCACACACCUGUUGUCCCAGCUACUCAAGAAGCUGAGAUGGGAG: 0.375
AGGGAGGUCACCCCUCCACUUCAGCUUGCCCUGACCUCCGCUCGCAAACCCCGAGCUUCCAAGCCUUUUGCUCCAGCCCUGCGGCUUCCCCAGAAGCCUGGGCUUAGGGU: 0.467
AUGGCCAAACUAUUUUGAAUUUUGUUGUCUGGCCCUCAGUGCCCUGCCCUCUCCCUUUGCAGGACCACAGCUCCCGUCCUUUGGCUUCUGGUCCUUCCUGUUCUCCACCC: 0.643
CCCAAGUCAGGAAGACCAUUAAGAAUAGGAGGAGAGGGCUCUGCCUCAACUUUCCUAGGAAAGAGCCCACCUCGGAGAUAGCUACGGUUUUCUCUGGUGGAGAUGGUGAG: 0.288
UGGCUUGUGUUAUCGGACAUUCUAAUGCAUAUUUAUAAGAGAAGUUUAACAAGUAUUUAUUCCCAUACUUCCCCUUGCAGACUGUUUUCUUCUGGCCUUUAGGCCUCUGC: 1.97

Some of these lines once more (study 1):
GACGGAGC: -0.266
CATCGTAG: -0.145
CAAGTAGC: -0.127
GGGGGTGA: -0.168
CGCAGTGA: -0.0669
ATGCCTAC: -0.048
ATCCTATG: 0.116
AGATGGAA: 0.0142
